Measured values collected from several papers.
Every numbered part comes from another study and shows a few of its results, in no order. “And” joins repeats or separate records; there may be more than shown.
Sequence of UniProt Q52WX2 (whole entry, looked up): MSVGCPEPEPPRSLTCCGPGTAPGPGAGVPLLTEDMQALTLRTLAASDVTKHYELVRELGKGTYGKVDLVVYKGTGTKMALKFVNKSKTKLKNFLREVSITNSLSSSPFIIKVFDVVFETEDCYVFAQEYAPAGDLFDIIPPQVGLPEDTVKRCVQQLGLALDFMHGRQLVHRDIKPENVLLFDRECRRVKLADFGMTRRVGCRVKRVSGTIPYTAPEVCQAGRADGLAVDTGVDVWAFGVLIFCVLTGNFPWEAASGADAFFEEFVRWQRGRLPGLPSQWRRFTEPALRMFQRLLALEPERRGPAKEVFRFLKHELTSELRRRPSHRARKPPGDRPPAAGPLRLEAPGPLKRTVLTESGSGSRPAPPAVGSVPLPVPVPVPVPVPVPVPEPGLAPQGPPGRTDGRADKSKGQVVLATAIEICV
Sequence of UniProt Q15831 (whole entry, looked up): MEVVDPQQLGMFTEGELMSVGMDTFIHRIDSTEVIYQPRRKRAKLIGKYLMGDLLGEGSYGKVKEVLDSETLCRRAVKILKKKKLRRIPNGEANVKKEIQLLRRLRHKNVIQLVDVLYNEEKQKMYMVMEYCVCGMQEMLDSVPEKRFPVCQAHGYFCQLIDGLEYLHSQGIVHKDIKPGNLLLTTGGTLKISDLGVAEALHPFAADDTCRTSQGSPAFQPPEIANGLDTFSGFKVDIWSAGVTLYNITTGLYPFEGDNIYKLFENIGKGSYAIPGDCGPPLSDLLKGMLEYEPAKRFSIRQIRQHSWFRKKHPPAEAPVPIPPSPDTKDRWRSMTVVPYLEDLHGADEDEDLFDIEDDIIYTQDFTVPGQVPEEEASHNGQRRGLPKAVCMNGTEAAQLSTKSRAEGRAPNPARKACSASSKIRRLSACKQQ
Sequence of UniProt Q8NE63 (whole entry, looked up): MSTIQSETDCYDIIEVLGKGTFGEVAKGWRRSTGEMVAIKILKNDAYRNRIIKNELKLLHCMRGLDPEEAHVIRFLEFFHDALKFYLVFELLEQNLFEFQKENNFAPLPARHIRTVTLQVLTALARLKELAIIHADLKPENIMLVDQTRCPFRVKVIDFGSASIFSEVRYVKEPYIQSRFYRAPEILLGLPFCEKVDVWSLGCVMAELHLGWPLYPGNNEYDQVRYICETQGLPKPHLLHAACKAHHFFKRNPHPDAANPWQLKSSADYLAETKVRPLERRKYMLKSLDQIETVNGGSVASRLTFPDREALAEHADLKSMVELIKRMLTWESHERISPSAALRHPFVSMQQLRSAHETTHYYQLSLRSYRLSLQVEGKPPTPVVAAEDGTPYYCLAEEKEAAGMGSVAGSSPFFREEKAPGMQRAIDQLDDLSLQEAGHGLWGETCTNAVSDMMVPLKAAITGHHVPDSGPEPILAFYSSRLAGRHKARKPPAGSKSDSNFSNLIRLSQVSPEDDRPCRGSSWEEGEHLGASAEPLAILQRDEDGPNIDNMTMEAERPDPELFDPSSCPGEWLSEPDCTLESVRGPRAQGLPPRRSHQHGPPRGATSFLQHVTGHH
Sequence of UniProt Q14004 (whole entry, looked up): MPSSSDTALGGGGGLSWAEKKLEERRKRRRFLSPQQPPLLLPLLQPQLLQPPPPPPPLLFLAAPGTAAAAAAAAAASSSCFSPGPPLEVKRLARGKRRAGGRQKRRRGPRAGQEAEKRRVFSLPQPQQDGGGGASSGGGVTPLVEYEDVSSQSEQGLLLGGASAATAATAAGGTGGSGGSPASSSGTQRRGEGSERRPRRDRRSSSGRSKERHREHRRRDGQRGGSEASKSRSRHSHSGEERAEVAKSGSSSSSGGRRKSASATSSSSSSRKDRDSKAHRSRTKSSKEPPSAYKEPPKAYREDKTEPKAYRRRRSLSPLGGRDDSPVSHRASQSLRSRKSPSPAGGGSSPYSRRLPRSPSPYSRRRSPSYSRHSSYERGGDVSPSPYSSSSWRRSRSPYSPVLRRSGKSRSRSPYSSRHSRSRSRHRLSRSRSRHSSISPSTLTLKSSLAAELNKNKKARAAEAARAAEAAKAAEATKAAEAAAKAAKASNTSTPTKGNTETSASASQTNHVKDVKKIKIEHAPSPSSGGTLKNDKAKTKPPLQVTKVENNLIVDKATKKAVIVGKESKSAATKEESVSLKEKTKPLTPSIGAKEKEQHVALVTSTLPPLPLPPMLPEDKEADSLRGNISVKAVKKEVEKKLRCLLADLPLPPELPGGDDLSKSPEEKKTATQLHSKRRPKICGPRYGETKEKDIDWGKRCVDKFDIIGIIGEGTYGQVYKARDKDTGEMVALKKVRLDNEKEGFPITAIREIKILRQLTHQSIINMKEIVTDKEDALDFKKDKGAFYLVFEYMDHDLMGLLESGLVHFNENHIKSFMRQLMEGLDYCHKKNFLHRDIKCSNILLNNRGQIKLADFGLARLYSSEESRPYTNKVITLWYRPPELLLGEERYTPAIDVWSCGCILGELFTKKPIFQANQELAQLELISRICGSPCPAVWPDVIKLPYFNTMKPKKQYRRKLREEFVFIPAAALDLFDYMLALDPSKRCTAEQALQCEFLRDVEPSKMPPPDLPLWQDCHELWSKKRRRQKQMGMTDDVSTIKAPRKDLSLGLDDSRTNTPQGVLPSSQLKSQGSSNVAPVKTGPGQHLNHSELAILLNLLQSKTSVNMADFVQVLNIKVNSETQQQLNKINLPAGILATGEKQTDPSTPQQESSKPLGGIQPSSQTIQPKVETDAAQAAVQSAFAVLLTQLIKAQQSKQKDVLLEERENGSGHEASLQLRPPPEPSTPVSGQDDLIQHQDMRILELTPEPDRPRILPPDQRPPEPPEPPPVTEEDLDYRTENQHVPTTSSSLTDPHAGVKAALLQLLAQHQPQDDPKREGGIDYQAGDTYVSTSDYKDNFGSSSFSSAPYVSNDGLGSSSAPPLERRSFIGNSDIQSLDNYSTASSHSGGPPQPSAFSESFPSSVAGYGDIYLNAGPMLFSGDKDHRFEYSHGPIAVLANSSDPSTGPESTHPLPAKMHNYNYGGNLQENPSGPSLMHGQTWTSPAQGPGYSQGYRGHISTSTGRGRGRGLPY
Sequence of UniProt P29597 (whole entry, looked up): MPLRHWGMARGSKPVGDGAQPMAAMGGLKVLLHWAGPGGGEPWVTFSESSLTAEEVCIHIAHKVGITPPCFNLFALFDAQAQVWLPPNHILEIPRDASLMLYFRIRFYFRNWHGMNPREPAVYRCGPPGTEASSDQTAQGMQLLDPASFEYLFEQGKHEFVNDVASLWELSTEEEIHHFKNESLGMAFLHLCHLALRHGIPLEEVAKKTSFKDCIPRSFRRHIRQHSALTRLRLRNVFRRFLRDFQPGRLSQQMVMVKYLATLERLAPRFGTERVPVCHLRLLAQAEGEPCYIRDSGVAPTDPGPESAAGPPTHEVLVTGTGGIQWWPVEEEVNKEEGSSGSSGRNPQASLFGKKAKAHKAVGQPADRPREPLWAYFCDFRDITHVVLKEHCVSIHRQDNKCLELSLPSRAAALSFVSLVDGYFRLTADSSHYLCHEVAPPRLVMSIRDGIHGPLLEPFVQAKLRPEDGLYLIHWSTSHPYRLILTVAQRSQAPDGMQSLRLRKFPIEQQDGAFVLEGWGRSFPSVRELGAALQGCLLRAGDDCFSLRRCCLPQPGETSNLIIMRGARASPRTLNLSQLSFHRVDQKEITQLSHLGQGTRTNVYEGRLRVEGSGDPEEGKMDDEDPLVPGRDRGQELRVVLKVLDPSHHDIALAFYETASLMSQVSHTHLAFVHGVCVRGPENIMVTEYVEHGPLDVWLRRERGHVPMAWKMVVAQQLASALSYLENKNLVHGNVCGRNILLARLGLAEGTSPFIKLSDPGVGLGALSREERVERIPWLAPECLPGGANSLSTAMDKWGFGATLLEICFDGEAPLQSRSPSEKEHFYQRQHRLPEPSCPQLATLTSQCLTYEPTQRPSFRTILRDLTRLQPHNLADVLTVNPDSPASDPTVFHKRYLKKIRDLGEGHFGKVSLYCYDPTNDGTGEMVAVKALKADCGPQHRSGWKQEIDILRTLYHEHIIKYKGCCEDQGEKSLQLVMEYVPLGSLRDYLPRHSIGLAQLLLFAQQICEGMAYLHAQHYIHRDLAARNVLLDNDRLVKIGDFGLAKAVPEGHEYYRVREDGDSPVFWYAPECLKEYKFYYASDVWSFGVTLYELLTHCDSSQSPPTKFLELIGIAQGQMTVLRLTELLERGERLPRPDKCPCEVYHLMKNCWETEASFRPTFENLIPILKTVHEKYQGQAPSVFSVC
Sequence of UniProt P33981 (whole entry, looked up): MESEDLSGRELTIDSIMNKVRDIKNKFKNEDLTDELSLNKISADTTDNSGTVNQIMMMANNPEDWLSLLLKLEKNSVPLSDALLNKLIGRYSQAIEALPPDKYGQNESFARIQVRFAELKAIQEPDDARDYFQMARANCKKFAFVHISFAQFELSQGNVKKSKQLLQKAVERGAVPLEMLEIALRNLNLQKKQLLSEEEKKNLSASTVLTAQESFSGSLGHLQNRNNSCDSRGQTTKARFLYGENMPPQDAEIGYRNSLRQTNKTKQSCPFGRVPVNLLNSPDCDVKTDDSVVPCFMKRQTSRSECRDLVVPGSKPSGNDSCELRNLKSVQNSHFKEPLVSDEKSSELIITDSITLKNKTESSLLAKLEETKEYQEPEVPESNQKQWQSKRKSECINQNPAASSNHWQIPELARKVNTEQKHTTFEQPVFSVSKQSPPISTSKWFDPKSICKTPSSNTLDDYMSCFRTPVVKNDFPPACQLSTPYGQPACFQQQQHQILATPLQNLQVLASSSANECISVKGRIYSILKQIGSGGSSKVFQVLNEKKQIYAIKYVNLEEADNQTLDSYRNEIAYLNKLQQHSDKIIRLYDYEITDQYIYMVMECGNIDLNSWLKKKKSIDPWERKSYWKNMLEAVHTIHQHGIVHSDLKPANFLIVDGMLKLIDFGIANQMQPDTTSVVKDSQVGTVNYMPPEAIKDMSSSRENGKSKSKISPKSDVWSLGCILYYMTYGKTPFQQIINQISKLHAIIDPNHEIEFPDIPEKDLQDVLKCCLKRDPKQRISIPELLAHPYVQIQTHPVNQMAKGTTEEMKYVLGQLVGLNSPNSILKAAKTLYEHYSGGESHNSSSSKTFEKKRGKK

Block 1
SMILES: Cc1ccc(NC(=O)c2ccnc(C(F)(F)F)c2)cc1-c1cc(OCCO)nc(N2CCOCC2)c1
Read-out: binding
Tested at: 1 µM
Measurement: remaining binding
Ephrin type-B receptor 3 (EPHB3, Homo sapiens, UniProt P54753); competition with immobilised ligand: 91%
Epidermal growth factor receptor (EGFR, Homo sapiens, UniProt P00533, del746-750): 86%
Mast/stem cell growth factor receptor Kit (KIT, Homo sapiens, UniProt P10721); competition with immobilised ligand: 92%
Homeodomain-interacting protein kinase 4 (HIPK4, Homo sapiens, UniProt Q8NE63); competition with immobilised ligand: 98%
Serine/threonine-protein kinase SBK1 (SBK1, Homo sapiens, UniProt Q52WX2); competition with immobilised ligand: 68%
Protein-tyrosine kinase 2-beta (PTK2B, Homo sapiens, UniProt Q14289): 100%
Non-receptor tyrosine-protein kinase TYK2, JH2 (TYK2, Homo sapiens, UniProt P29597); competition with immobilised ligand: 100%

Block 2
SMILES: CN1CCN(c2cnc3c(C4CCN(C(=O)c5ccc(OC(F)(F)F)cc5N)CC4)ncnc3c2)CC1
Tested at: 1 µM
Measurement: remaining binding
Myosin light chain kinase family member 4 (MYLK4, Homo sapiens, UniProt Q86YV6); cell-free assay, competition with immobilised ligand: 100%
Serine/threonine-protein kinase Nek5 (NEK5, Homo sapiens, UniProt Q6P3R8); cell-free assay, competition with immobilised ligand: 100%
Receptor-type tyrosine-protein kinase FLT3, autoinhibited (FLT3, Homo sapiens, UniProt P36888); cell-free assay, competition with immobilised ligand: 100%
Ribosomal protein S6 kinase alpha-2, N-terminal kinase domain (RPS6KA2, Homo sapiens, UniProt Q15349); cell-free assay, competition with immobilised ligand: 100%
Inhibitor of nuclear factor kappa-B kinase subunit alpha (CHUK, Homo sapiens, UniProt O15111); cell-free assay, competition with immobilised ligand: 100%
Epidermal growth factor receptor (EGFR, Homo sapiens, UniProt P00533, del746-750); cell-free assay, competition with immobilised ligand: 100%
Dual specificity tyrosine-phosphorylation-regulated kinase 1B (DYRK1B, Homo sapiens, UniProt Q9Y463); cell-free assay, competition with immobilised ligand: 54%
Myosin light chain kinase 2, skeletal/cardiac muscle (MYLK2, Homo sapiens, UniProt Q9H1R3); cell-free assay, competition with immobilised ligand: 85%
Ephrin type-A receptor 7 (EPHA7, Homo sapiens, UniProt Q15375); cell-free assay, competition with immobilised ligand: 100%
Serine/threonine-protein kinase 10 (STK10, Homo sapiens, UniProt O94804); cell-free assay, competition with immobilised ligand: 52%
Serine/threonine-protein kinase STK11 (STK11, Homo sapiens, UniProt Q15831); cell-free assay, competition with immobilised ligand: 100%
Serine/threonine-protein kinase SBK1 (SBK1, Homo sapiens, UniProt Q52WX2); cell-free assay, competition with immobilised ligand: 100%
Cyclin-dependent kinase 13 (CDK13, Homo sapiens, UniProt Q14004); cell-free assay, competition with immobilised ligand: 62%
Casein kinase I isoform alpha-like (CSNK1A1L, Homo sapiens, UniProt Q8N752); cell-free assay, competition with immobilised ligand: 100%
Cyclin-dependent kinase 19 (CDK19, Homo sapiens, UniProt Q9BWU1); competition binding: 79%
Mitogen-activated protein kinase kinase kinase 6 (MAP3K6, Homo sapiens, UniProt O95382); cell-free assay, competition with immobilised ligand: 100%
Tyrosine-protein kinase TXK (TXK, Homo sapiens, UniProt P42681); binding, competition with immobilised ligand: 88%
SRSF protein kinase 1 (SRPK1, Homo sapiens, UniProt Q96SB4); cell-free assay, competition with immobilised ligand: 88%
Ephrin type-A receptor 8 (EPHA8, Homo sapiens, UniProt P29322); cell-free assay, competition with immobilised ligand: 100%
Ribosomal protein S6 kinase alpha-4, N-terminal kinase domain (RPS6KA4, Homo sapiens, UniProt O75676); cell-free assay, competition with immobilised ligand: 100%
Cyclin-dependent kinase-like 1 (CDKL1, Homo sapiens, UniProt Q00532); binding, competition with immobilised ligand: 94%
Tyrosine-protein kinase ABL1, non-phosphorylated (ABL1, Homo sapiens, UniProt P00519, F317L); cell-free assay, competition with immobilised ligand: 100%
LIM domain kinase 2 (LIMK2, Homo sapiens, UniProt P53671); cell-free assay, competition with immobilised ligand: 100%
Dual specificity protein kinase TTK (TTK, Homo sapiens, UniProt P33981); cell-free assay, competition with immobilised ligand: 100%
Receptor-type tyrosine-protein kinase FLT3 (FLT3, Homo sapiens, UniProt P36888, D835H); cell-free assay, competition with immobilised ligand: 75%

Block 3
Structure (SMILES): Cn1cnc(Cn2ccc3ccc(CNCc4[nH]c5ccccc5c4[C@H]4NC(=O)c5ccc(O)cc54)cc32)c1
Target: GTPase KRas (KRAS, Homo sapiens, UniProt P01116, G12C)
Read-out: binding
Action: competitor
Technique: NanoBRET
Cells: HEK293
Relative to: vehicle and 20 µM BI compound
Measurement: normalized BRET
9.14 nM, 3 h: 103% and 104% and 98.6% and 86.1%
339 pM, 2 h: 105% and 106% and 92.9%
1.02 nM, 2 h: 97.9% and 98.7% and 106% and 93.6%
20 µM, 1 h: 0.97% and -1.27% and 0.14% and 0.16%
2.22 µM, 2 h: 13.7% and 14.2% and 12.2% and 11.6%
6.67 µM, 0.5 h: 5.67% and 6.95% and 10.3% and 7.66%

Block 4
Organism: Sarcocystis neurona
Read-out: parasite growth
Tested at: 10 µM
Notes: secondary screen
Measurement: inhibition
COc1cc(C[C@@H](CO)[C@H](CO)Cc2ccc(O)c(OC)c2)ccc1O: -10.9%
COC1=CC(=O)C[C@@H](C)[C@]12Oc1c(Cl)c(OC)cc(OC)c1C2=O: -47%
Oc1c(Cl)cc(Cl)c(Cl)c1Cc1c(O)c(Cl)cc(Cl)c1Cl: 70.3%
O=C1CC2(CCCC2)CC(=O)N1CCCCN1CCN(c2ncccn2)CC1: -28.5%
C[C@@](Cc1ccc(O)c(O)c1)(NN)C(=O)O: -33.7%
CCCCC1=NC2(CCCC2)C(=O)N1Cc1ccc(-c2ccccc2-c2nnn[nH]2)cc1: -12.5%
O=C1c2c(O)ccc(O)c2C(=O)c2c(NCCNCCO)ccc(NCCNCCO)c21: 44.7%
CN(CCCN1c2ccccc2CCc2ccccc21)CC(=O)c1ccc(Cl)cc1: 3.6%

Block 5
Cell line: mouse MPNST tumor cells
Technique: high-content nuclear imaging
Item: cell number
Tested at: 10 µM
Time: 12 h
Notes: mean of 2 replicates
Relative to: plate mean
Reading: higher = more cells
Measurement: nuclei count
CN(C)CCCCSC(=N)N: 0.743 z-score
O=C1OC(CN2CCOCC2)CN1/N=C/c1ccc([N+](=O)[O-])o1 (stereo not shown): -0.189 z-score
COc1ccc(Cl)cc1[C@]1(F)C(=O)Nc2cc(C(F)(F)F)ccc21: 2.88 z-score
Cn1c(NCCN(CCO)CCCc2ccc([N+](=O)[O-])cc2)cc(=O)n(C)c1=O: 0.517 z-score
CC(C)(CO)C(O)C(=O)NCCCO (stereo not shown): 1.06 z-score
O=C1c2cccc3c2[C@H](CCC3)CN1[C@@H]1CN2CCC1CC2: 0.124 z-score and 2.51 z-score

Excerpt of the above (block 5):
O=C1c2cccc3c2[C@H](CCC3)CN1[C@@H]1CN2CCC1CC2: 0.124 z-score and 2.51 z-score
CC(C)(CO)C(O)C(=O)NCCCO (stereo not shown): 1.06 z-score
Cn1c(NCCN(CCO)CCCc2ccc([N+](=O)[O-])cc2)cc(=O)n(C)c1=O: 0.517 z-score
O=C1OC(CN2CCOCC2)CN1/N=C/c1ccc([N+](=O)[O-])o1 (stereo not shown): -0.189 z-score
COc1ccc(Cl)cc1[C@]1(F)C(=O)Nc2cc(C(F)(F)F)ccc21: 2.88 z-score
CN(C)CCCCSC(=N)N: 0.743 z-score
